Results from different studies.
Parts stem from different laboratories: compare values within a part only. Positions count from the first letter of the parent shown.

Block 1 — technique: DHFR PCA, deep sequencing; matrix: yeast; added: (+)-ABA 17 µM; relative to: wild-type fitted maximum; direction: higher = stronger binding
Target: ABI1, truncated, D143A, DHFR fusion (Arabidopsis thaliana)
Setting: methotrexate growth selection, single substitutions
Starting sequence: PYL1, truncated, DHFR fusion (Arabidopsis thaliana); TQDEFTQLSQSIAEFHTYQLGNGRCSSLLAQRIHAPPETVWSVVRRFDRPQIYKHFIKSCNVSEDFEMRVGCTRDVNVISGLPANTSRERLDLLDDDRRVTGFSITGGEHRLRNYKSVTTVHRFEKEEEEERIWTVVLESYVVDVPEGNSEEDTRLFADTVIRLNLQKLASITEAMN; partner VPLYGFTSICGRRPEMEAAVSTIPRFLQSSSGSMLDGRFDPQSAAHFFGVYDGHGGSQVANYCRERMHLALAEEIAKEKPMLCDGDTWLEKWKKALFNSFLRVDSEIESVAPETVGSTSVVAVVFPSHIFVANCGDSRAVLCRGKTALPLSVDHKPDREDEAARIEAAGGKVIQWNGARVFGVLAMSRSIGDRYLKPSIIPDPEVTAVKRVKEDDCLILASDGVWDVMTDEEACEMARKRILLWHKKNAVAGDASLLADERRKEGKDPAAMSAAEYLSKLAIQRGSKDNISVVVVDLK
Change | relative binding score [%]
G108D | 5.35
D75H | 84.3
D65Y | 59.3
Q10D | 91.6
S87C | 25.2
V136K | 2.58
T73K | 66.6
I33F | -5.87
R123Y | 69.1
Y141D | -11.5
G102T | -1.89

Block 2 — technique: competition protein-binding microarray; molecule type: double-stranded DNA, one strand shown; matrix: in vitro; concentration: 2 µM; added: Pho4 competitor, 0.05 µM; direction: higher = stronger binding
Target: Centromere-binding protein 1, full length, His-tagged (CBF1, Saccharomyces cerevisiae, UniProt P17106, residues 1-351)
Chain of UniProt P17106 (whole entry, looked up): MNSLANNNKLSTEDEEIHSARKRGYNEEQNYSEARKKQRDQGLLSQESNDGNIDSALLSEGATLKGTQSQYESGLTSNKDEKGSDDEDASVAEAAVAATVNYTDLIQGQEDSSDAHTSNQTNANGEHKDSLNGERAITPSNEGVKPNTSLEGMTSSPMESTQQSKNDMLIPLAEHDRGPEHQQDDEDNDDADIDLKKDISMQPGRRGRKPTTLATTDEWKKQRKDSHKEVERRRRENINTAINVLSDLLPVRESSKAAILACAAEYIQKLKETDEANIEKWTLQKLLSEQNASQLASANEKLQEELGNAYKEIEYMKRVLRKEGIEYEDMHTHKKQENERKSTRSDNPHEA
Setting: whole 60-bp probe, lowest competitor level
Sequence | fluorescence intensity
TTGTTGAAAACGAGTCACGTGCTTTACCATTTTGCTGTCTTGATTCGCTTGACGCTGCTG | 11500 a.u.
CATCCCATTGCAAGACCCACGTGAAGGAGCGTCTTCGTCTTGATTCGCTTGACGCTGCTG | 542 a.u.
TCCGAAATGCGATAAGTCGTGATGGGGTTACCTCGAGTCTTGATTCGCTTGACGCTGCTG | 80.8 a.u.
TACATTCCATTTTTGCACGTGTTGGGGTACAGAATCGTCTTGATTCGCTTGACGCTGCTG | 2180 a.u.
CCGGCGACCTCCAAGCGCGTGCCAGGTGGGCCCCTCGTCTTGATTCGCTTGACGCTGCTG | 65.4 a.u.
TTACAACAGGAATACCTTGTGACAGGCAACCAAGAAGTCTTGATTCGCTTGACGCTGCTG | 84.8 a.u.
CTTTCCCGATCTTATCACGTGTTTTTAGCACATTTGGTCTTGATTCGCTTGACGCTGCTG | 5120 a.u.
CATACCCAACCTTTTCACGTGCATTAAGATATTTGTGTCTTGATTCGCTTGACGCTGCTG | 1450 a.u.
CTTCTGTAAATTTGCGCCGTGGGTGGACGCGCCCCGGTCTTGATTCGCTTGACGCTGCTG | 80.7 a.u.
AACCGTACTTGATTTCACCTGCGGGCTTCAAGTCGGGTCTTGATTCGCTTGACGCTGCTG | 67.7 a.u.
AGCAACCGCACACAGAATGTGACGGCAAATGCATTTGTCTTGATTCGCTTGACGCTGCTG | 83.7 a.u.
GTCTTGTCTCATTGAGGAGTGGGTGTCCCCACTTCAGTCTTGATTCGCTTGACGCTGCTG | 69.2 a.u.
TAGAGGCCCAACCGTCACGGCGTCTGGCTACGAACCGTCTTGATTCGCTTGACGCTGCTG | 56.4 a.u.
TGTTCCATTCAATGAAACATGTCAATTCTCTGAGTGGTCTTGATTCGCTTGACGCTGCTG | 74.7 a.u.

Block 3 — technique: RNA Bind-n-Seq; molecule type: RNA; matrix: in vitro; concentration: not given; relative to: input RNA pool; direction: higher = stronger binding
Target: RING finger protein unkempt homolog, zinc fingers 1-6, GST-SBP tag (UNK, Homo sapiens, UniProt Q9C0B0, residues 30-357)
Setting: RNA with constant flanks, human and mouse sites, ends assumed
Target sequence (chain): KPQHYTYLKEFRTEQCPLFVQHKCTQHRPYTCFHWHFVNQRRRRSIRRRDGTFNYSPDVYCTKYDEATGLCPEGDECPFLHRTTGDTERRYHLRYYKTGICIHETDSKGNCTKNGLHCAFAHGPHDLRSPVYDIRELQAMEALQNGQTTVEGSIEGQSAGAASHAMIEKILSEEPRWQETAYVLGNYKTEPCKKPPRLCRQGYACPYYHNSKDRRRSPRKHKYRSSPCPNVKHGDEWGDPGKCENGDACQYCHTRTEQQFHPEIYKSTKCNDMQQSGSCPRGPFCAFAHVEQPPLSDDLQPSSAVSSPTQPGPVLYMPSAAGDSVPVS
Sequence | bound/input enrichment [ratio]
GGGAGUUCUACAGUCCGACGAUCGAAGCCUUGAAGAUCUUCCAGAAAAUAAAGGAUGAAAAGAGUCCAGAAUGGUCCAAAUACUUAGGAUUAAUCAAAAAAUUUGUCACUGAUUCCAAUGCAGUGGUUCAAUUGAAAGGACUACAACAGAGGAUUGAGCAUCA | 1.6
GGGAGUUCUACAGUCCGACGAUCCUGCUGAGGCUGUGUCACCGGGGUCAGACCCUGUUAGUUGUGUCUGCGUGCCCAUUCUUUUUUGGUUUGUUCAUUUAUUGUUUGUUGUUGUUGUUGUUGUUGUUGUUAGUUUUUCCAGGUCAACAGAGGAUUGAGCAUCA | 12.4
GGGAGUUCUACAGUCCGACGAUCGUUCAUACUGGCGAGAAACCGUAUCAGUGUAAAGAAUGUGAAAAGGCCUUUACACGUGAGUCUCAACUAAUGCGACAUCAGAGAAUUCAUAUCCGUGGCAAAUCUUUGGACUGUAAGGAACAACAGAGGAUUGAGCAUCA | 0.322
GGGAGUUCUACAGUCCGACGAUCUGGCUUUCUCCCAAGAGUCUCACCCGCUCCCAUCUGGCUGUCAUUGGACUGGACGCAUACCUGUGGUCUCACCAGCUCAGUUCUCAGAAGACAUGGCAACUAAAGAAGUCAAAGGAAGCCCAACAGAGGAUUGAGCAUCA | 0.731
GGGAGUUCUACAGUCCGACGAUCGAUGAGGCCCAGAAGCCUUACCUGGUACAACGGAGAGGAGCUGAAUUUGCUUUGACAACUAUAGUAAAGCAUUUUGGUGGUGAAAUGGCAGUGAAGUUGCCACAUCUCUGGGAUGCUAUGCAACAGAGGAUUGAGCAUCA | 0.1
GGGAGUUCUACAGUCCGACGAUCGCGUCACCAAGGUGUCCUGACCGCCAGAAUGUCCUGACCACCAAGGUGUCCUAACCUACCGGCCCCUCUGCUGGAUACCCCUCUUGGACCUGUAGCCACCUGCACCAGGAGCUGGACCUGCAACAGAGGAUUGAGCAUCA | 0.0678
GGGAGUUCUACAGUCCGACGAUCGGUGGCACCCUGGAUCUGACCCUGAUCCGUGCCCGCCUCCAGGAGAAGUUGUCACCUCCCUACAGCUCCCCACAGGAGUUUGCCCAGGAUGUGGGCCGCAUGUUCAAGCAAUUCAACAAGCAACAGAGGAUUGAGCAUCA | 0.0785
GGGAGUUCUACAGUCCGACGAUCGAAUUUUCUGAAUGCUUUCAUAGACAAAAACGCAUUUAAACUAUGUUUACCUGGUUUUCCAACAGAAAUCAAAUGAUUUUAAUAUUAUGUUUUGAUGGGUUAUUUUCAGAGUUGUUUGGUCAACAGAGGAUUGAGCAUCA | 0.248

Block 4 — technique: protein-binding microarray; molecule type: double-stranded DNA, one strand shown; matrix: in vitro; concentration: not given; direction: higher = stronger binding
Target: Transcriptional repressor CTCF (CTCF, Homo sapiens, UniProt P49711, residues 1-727, full length assumed)
Chain of UniProt P49711 (whole entry, looked up): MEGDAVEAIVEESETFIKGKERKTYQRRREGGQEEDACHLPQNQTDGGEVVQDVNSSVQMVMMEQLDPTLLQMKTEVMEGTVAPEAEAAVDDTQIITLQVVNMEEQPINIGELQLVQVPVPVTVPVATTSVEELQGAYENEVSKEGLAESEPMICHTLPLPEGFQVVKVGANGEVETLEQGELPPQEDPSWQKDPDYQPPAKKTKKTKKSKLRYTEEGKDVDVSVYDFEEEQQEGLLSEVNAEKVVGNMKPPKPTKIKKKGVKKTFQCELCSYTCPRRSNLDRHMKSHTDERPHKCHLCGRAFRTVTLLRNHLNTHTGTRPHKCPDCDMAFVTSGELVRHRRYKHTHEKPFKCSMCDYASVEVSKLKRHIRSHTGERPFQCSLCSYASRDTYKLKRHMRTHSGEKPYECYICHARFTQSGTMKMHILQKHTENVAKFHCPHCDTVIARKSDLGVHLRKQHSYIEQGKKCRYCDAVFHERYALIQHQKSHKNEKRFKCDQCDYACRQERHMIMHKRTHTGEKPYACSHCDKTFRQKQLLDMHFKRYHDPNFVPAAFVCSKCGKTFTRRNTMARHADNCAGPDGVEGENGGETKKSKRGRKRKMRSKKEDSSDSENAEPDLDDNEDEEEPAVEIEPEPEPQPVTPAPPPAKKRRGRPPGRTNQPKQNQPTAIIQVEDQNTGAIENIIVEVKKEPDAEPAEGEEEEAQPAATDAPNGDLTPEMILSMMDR
Setting: k-mer, scored over probes, only values ≥0.25
Sequence | E-score
AATGAAGT | 0.263
TAGCGCCA | 0.371
AAATATTG | 0.345
ATGTATTA | 0.341
CATGGCGC | 0.333
TAATTCAA | 0.257
ATATCTAC | 0.328
CGTTATTA | 0.278
TCCATAAA | 0.259
AGTAATAT | 0.294
AAAATTAC | 0.253
AATGCATT | 0.367
ATGCATCA | 0.263
ATATTACC | 0.359
TAAAAACA | 0.289
ATAAAAAG | 0.354
ATTTGTCG | 0.26
AATAATCG | 0.272
AATGTAAG | 0.255

Block 5 — technique: RNA Bind-n-Seq; molecule type: RNA; matrix: in vitro; concentration: 20 nM; setting: 6-mer, flanks averaged, single round; added: 150 mM LiCl; relative to: input library; direction: higher = stronger binding
Target: TAR DNA-binding protein 43, full length, His tag (TARDBP, Homo sapiens, UniProt Q13148, residues 1-414)
Sequence | 6-mer enrichment (R)
CGAGCU | 0.859
AGCCCA | 0.924
ACGGCC | 0.879
AACGAG | 0.896
GCAGUG | 1.14
UAAACU | 0.874
CUACAU | 0.859
UCGUAG | 0.898
CACCAG | 0.896
AUGGUU | 1.12
GAUAGU | 0.96
GCUCGA | 0.836
GCUCGU | 0.876
UCUGUA | 0.978
GGUAAU | 0.99
UUUUUG | 1.59
AUCACA | 0.834

Block 6 — technique: universal PBM; molecule type: double-stranded DNA, one strand shown; matrix: in vitro; concentration: not given; direction: higher = stronger binding
Target: Sal-like protein 4, full length isoform B (SALL4, Homo sapiens, UniProt Q9UJQ4-2, residues 1-616)
Setting: 8-mer, flanks averaged, mean of replicates
Sequence | E-score
ACATAGTG | 0.19
ATCGAACC | -0.0656
CAAAATAC | 0.272
ATCGTACG | 0.11
GTTTTCTA | 0.143
ACAGGCTA | -0.0936
ATCACCTG | -0.0751
CCTCGCGA | -0.188
GCAGCAGA | -0.171
AGCATAAG | 0.0414
CACTTTCA | -0.00707
ACTTCACA | 0.0713
CAAACCCA | 0.095
ACAGGGCT | -0.304
CTACCCAG | -0.153
CCAGACGC | -0.261
ATACGACC | -0.0799
ACGTTACA | 0.161
ATAGCCTA | 0.118

Block 7 — target: CCNF, cyclin fold, Cln2 fusion (human); technique: yeast growth competition, sequencing; matrix: yeast; setting: strong parent motif; relative to: not given; direction: higher = stronger binding
Starting sequence: CDC25A docking peptide (human); PPHRRRLLFACSP
Change | normalised enrichment score
PPHRRRDLFACSP [L7D] | 0.573
PPVRRRLLFACSP [H3V] | 9.28
PIHRRRLLFACSP [P2I] | 6.63
PPHRRRLCFACSP [L8C] | 6.84
PPHRRRLLFACSK [P13K] | 6.11
PPHRRRNLFACSP [L7N] | 1.8
PPHARRLLFACSP [R4A] | 6.73
PPWRRRLLFACSP [H3W] | 6.95
PPHRRRLLFACVP [S12V] | 7.43
PPHRRRLDFACSP [L8D] | 7.8
PPHFRRLLFACSP [R4F] | 3.15
PPHRRRLLFANSP [C11N] | 8.05
PPHRRRLFFACSP [L8F] | 7.29
PPHWRRLLFACSP [R4W] | 2.67

For quick reference, copied from above (block 1):
Change | relative binding score [%]
G108D | 5.35
D75H | 84.3
D65Y | 59.3
Q10D | 91.6
S87C | 25.2
V136K | 2.58
T73K | 66.6
I33F | -5.87
R123Y | 69.1
